# Assay results from different studies.
# Each line is one published result; not all experiments were run side by side. Values joined by “and” are separate records of one study, mostly repeats; a detail may differ. ± marks the error that the study gave.
SMILES,organism,test,system,conditions,scale,measurement,value
CC1=NN(c2ccccc2F)C(=O)/C1=N\Nc1ccc(S(N)(=O)=O)cc1,Saccharomyces cerevisiae,,,500 µg/mL,,glucose uptake,47.3%
CC(=O)O[C@@H]1[C@@H](OC(C)=O)[C@H](Sc2sc(C(=O)c3ccc(Cl)cc3)c(N)c2-c2nc3ccccc3s2)OC[C@H]1OC(C)=O,Hepatitis C virus,"viral replication, inhibitor","Huh7.5, genotype 4 ED43","concentration not given, non-toxic dose, HCVcc",,viral titre reduction,13.3%
COc1ccc(N2CCN(C(=O)c3ccc(Cl)c([N+](=O)[O-])c3)CC2)cc1,Saccharomyces cerevisiae,endocytic recycling,wild type,"20 µM, 2 h, 30 °C",reference: cells,cells with PM GFP-Snc1,4%
Nc1nc(-c2ccccc2)nc2[nH]nc(Nc3ccc(O)cc3)c12,rhinovirus B5,viral cytopathic effect,HeLa,,,IC50,103000 nM
O=c1[nH]cc(C(c2cccc(Cl)c2)c2c[nH]c(=O)[nH]c2=O)c(=O)[nH]1,HIV-1 subtype C,"p24 antigen production, p24 ELISA",,500 µg/mL,,inhibition,86%
C=C[C@]1(C)C[C@@H](OC(=O)CSc2ccc(NC(=O)c3ccco3)cc2)[C@]2(C)[C@H](C)CC[C@]3(CCC(=O)[C@H]32)[C@@H](C)[C@@H]1O,Mycoplasma gallisepticum,,"infected chickens, lung","intramuscular, 5 mg/kg daily x3, 72 h",reference: 0 h,lung mycoplasma load reduction,0.925 log10 CFU/mL and 1.72 log10 CFU/mL and 1.05 log10 CFU/mL and 0.567 log10 CFU/mL and 1.29 log10 CFU/mL and 0.915 log10 CFU/mL and 1.46 log10 CFU/mL and 0.935 log10 CFU/mL
Cc1cccc2c1N(C(=O)n1ccnc1)CC2,Arabidopsis thaliana,,"wild type, seeds","10 µM, after high-temperature exposure, added: 1 µM karrikin KAR2",,germination rate,53.7% and 58.6% and 59.4% and 43.9% and 54.8% and 50% and 55.3%
C[C@]12CCC(O)CC1=CCC1C2CC[C@]2(C)/C(=N\NC(N)=S)CCC12 (stereo partly drawn),Trypanosoma cruzi,"reporter mRNA translation, inhibitor, refers to: Renilla luciferase mRNA",cell-free extract,"concentration not given, test 2",reference: positive over negative control,translation activity,160% and 103%
COc1cc(C(=O)O)ccc1NC(=O)c1ccc(NC(=O)c2ccc(NC(=O)[C@H](Cc3c[nH]nn3)NC(=O)c3ccc(NC(=O)/C(C)=C/c4ccc(O)cc4)cc3)cc2)c(OC)c1,Salmonella Typhimurium,broth microdilution,TA100,,,MIC,0.25 µg/mL
FC(F)(F)c1cccc(CNc2nc(NC3CCN(Cc4ccccc4)CC3)c3nc[nH]c3n2)c1,Cryptococcus neoformans,RNA-seq,,"48 µg/mL, 3 h, log2 fold change above 1",,upregulated genes,988 genes
CSc1ccc(Nc2n[nH]c3nc(-c4ccccc4)nc(N)c23)cc1,rhinovirus B5,viral cytopathic effect,HeLa,,,IC50,30 nM
COc1nc(C(=O)Nc2ccc(C(=O)O)c(O)c2OC)ccc1NC(=O)c1ccc(NC(=O)[C@H](Cc2c[nH]nn2)NC(=O)c2ccc(NC(=O)/C(C)=C/c3ccc(O)cc3)cc2)cc1,Salmonella enterica serovar Kentucky,broth microdilution,ciprofloxacin-sensitive,,,MIC,0.25 µg/mL
O=C(c1ccc(Cl)c([N+](=O)[O-])c1)N1CCN(c2ccc(F)cc2)CC1,Saccharomyces cerevisiae,growth,YML013C-A homozygous deletion,6.7 µM,direction not given,Z-score,4.07
C#CCOc1ccc2c(=O)c(/C=C/C(=O)N3CCN(C(=S)SCCCN(C)C)CC3)coc2c1,Orthotospovirus tomatomaculae,"viral infection, half-leaf method",,500 µg/mL,,inactivation activity,66.2 ± 3.1%
CC(C)n1ncc2c(C(=O)NCC(C)(C)N)cc(C3CC3)nc21,Enterovirus A71,viral replication,Tainan/4643/1998,3000 nM,,plaque reduction,100%
CC(CCCOC(=O)CCC[N+](C)(C)C)C1CCC2C3C(OC(=O)CCC[N+](C)(C)C)CC4CC(OC(=O)CCC[N+](C)(C)C)CCC4(C)C3CC(OC(=O)CCC[N+](C)(C)C)C12C (stereo not drawn),Staphylococcus aureus,"microbial growth, disc diffusion",ATCC29213,"125 µg/disc, 24 h",,inhibition zone,12 mm
N=C(N)NCCC[C@@H]1NC(=O)[C@H](CCCNC(=N)N)NC(=O)[C@@H](C(c2ccccc2)c2ccccc2)NC(=O)[C@H](Cc2c[nH]c3ccccc23)NC(=O)[C@@H](C(c2ccccc2)c2ccccc2)NC(=O)[C@@H](CCCNC(=N)N)NC(=O)[C@@H](CCCNC(=N)N)NC1=O,Staphylococcus aureus,time-kill,MRSA ATCC BAA-1556,"4 × MIC, 1 h",,killing,> 85%
CCCCC(CC)COC(=O)CC(C(=O)OCC(CC)CCCC)S(=O)(=O)O.COC(=O)Nc1nc2cc(C(=O)c3ccccc3)ccc2[nH]1 (stereo not drawn),Cryptococcus neoformans,EUCAST broth microdilution,clinical isolate,"72 h, 37 °C, RPMI with 2% glucose",,IC90,625 nM
COc1ccc(Nc2n[nH]c3nc(-c4ccccc4)nc(N)c23)cc1,rhinovirus B5,viral cytopathic effect,HeLa,,,IC50,30 nM
O=c1[nH]cc(C(c2ccccc2Br)c2c[nH]c(=O)[nH]c2=O)c(=O)[nH]1,HIV-1 subtype C,"p24 antigen production, p24 ELISA",,3.9 µg/mL,,inhibition,< 25%
CN(Cc1ccc(C2(C(F)(F)F)CCC2)cc1)Cc1cccc2ccccc12,Trichophyton rubrum,"microbial killing, broth dilution",ATCC28188,6 days,,MFC,8000 µg/mL
CC1=CC(Oc2c(F)cc3c(C)cc(=O)oc3c2F)OC1=O (racemic),Phelipanche ramosa,stimulant,,1 µM,reference: (±)-GR24,maximum germination stimulation,85%
C=C(NC(=O)c1csc(-c2nc3c(cc2O)-c2nc(cs2)C(=O)NC(C(C)O)C(=O)NC(=C(C)OC)c2nc(cs2)C(=O)NC2c4nc(cs4)C(=O)NC(COC(=O)c4c5c6c(cccc6n4O)COC(=O)C(OC4CC(C)(O)C(N(C)C)C(C)O4)C2OC5)c2nc-3cs2)n1)C(N)=O (stereo not drawn),Streptococcus pyogenes,,10 isolates,pH 8.5,,MIC50,0.0078 µg/mL
O=c1[nH]cc(C(c2ccc(Cl)cc2)c2c[nH]c(=O)[nH]c2=O)c(=O)[nH]1,HIV-1 subtype C,"p24 antigen production, p24 ELISA",,1000 µg/mL,,inhibition,97%
Nc1nc(-c2ccccc2)nc2[nH]nc(Nc3c(F)cc(F)cc3F)c12,rhinovirus B5,viral cytopathic effect,HeLa,,,IC50,1470 nM
C/C(=C\c1ccc(O)cc1)C(=O)Nc1ccc(C(=O)N[C@@H](Cc2c[nH]nn2)C(=O)Nc2ccc(C(=O)Nc3ccc(C(=O)Nc4ccc(C(=O)O)cc4)cc3)cc2)cc1,Salmonella enterica serovar Kentucky,broth microdilution,ciprofloxacin-sensitive,,,MIC,0.125 µg/mL
Cc1ccc2c(c1)nc(NC(=O)c1cccc(C(F)(F)F)c1)n2[C@H]1CC[C@H](N)CC1,Trypanosoma cruzi,intracellular amastigote growth,Tulahuen,mean value,,EC50,1270 nM
CC(=O)OC[C@H]1O[C@@H](Sc2sc(C(=O)c3ccc(Cl)cc3)c(N)c2-c2nc3ccccc3s2)[C@H](OC(C)=O)[C@@H](OC(C)=O)[C@@H]1OC(C)=O,Hepatitis C virus,"viral replication, inhibitor","Huh7.5, genotype 4 ED43","concentration not given, non-toxic dose, HCVcc",,viral titre reduction,26.7%
O=c1[nH]cc(C(c2cccc(C(F)(F)F)c2)c2c[nH]c(=O)[nH]c2=O)c(=O)[nH]1,HIV-1 subtype C,"p24 antigen production, p24 ELISA",,31.25 µg/mL,,inhibition,< 25%
COc1nc2ccc(Br)cc2cc1[C@@H](c1ccccc1)[C@@](O)(CCN(C)C)c1cccc2ccccc12,Mycobacterium marinum,,,,,MIC90,3.12 µM
CC1=C[C@@H](O/C=C2/C(=O)O[C@@H]3c4ccccc4C[C@H]23)OC1=O,Phelipanche ramosa,"seed germination, stimulant",seeds,,,EC50,0.84 nM
Cc1ccc(-c2nc(N)c3c(Nc4ccccc4)n[nH]c3n2)cc1,rhinovirus B5,viral cytopathic effect,HeLa,,,IC50,90 nM
NCCOCCO.O=C(O)C(Cl)Cl,Chenopodium album,herbicidal activity,,"15 mg/mL, 21 days, pre-emergence greenhouse",,inhibition,0%
COc1cc(C(=O)O)ccc1NC(=O)c1ccc(NC(=O)c2ccc(NC(=O)[C@H](Cc3c[nH]nn3)NC(=O)c3ccc(NC(=O)/C(C)=C/c4ccc(O)cc4)cc3)cc2)c(OC)c1O,Salmonella enterica serovar Kentucky,broth microdilution,ciprofloxacin-sensitive,,,MIC,0.25 µg/mL
CCOc1cc(CN2CCCC(CNC(=O)c3ccc(F)cc3)C2)ccc1OC (stereo not drawn),Trypanosoma cruzi,"reporter mRNA translation, inhibitor, refers to: Renilla luciferase mRNA",cell-free extract,"concentration not given, test 2",reference: positive over negative control,translation activity,108%
CC(C)n1ncc2c(C(=O)NCC3CNC3)cc(C3CC3)nc21,Enterovirus A71,viral replication,Tainan/4643/1998,900 nM,,plaque reduction,27.9% and 31.6%
COc1ccc(CNc2nc([C@H]3CC[C@H](C(=O)O)CC3)nc3sc4ccccc4c23)cc1Cl,Cryptosporidium parvum,"parasite growth, immunofluorescence imaging","HCT-8, Iowa",8.22 nM,,inhibition,-8.78% and -24.4%
O=[N+]([O-])c1cc(Br)cc([N+](=O)[O-])c1NS(=O)(=O)c1ccc(Br)cc1,Arabidopsis thaliana,,"PYL4 overexpression, seeds",1 µM,,number of germinated seeds,33 and 35 and 34
Cc1cccc2c1N(C(=O)n1ccnn1)CC2,Lactuca sativa,,seeds,"50 µM, in darkness, added: without karrikin KAR1",,germination rate,19.2% and 14.6% and 14.3% and 16.7% and 17.3% and 22%
COc1nc(C(=O)O)ccc1NC(=O)c1ccc(NC(=O)c2ccc(NC(=O)[C@H](Cc3c[nH]nn3)NC(=O)c3ccc(NC(=O)/C(C)=C/c4ccc(O)cc4)cc3)cc2)c(OC)c1O,Salmonella enterica serovar Kentucky,broth microdilution,ciprofloxacin-sensitive,,,MIC,4 µg/mL
CC(C)n1ncc2c(C(=O)NC[C@@H](C)N)cc(C3CC3)nc21,Enterovirus A71,viral replication,Tainan/4643/1998,3000 nM,,plaque reduction,100%
C/C(=C\c1ccc(O)cc1)C(=O)Nc1ccc(C(=O)N[C@@H](Cc2c[nH]nn2)C(=O)Nc2ccc(C(=O)Nc3ccc(C(=O)Nc4ccc(C(=O)O)c(O)c4)c(O)c3)cc2)cc1,Salmonella enterica serovar Kentucky,broth microdilution,ciprofloxacin-resistant,,,MIC,0.25 µg/mL
Cc1ccccc1C(c1c[nH]c(=O)[nH]c1=O)c1c[nH]c(=O)[nH]c1=O,HIV-1 subtype C,"p24 antigen production, p24 ELISA",,250 µg/mL,,inhibition,55%
COc1cc(C(=O)O)ccc1NC(=O)c1ccc(NC(=O)c2ccc(NC(=O)[C@H](Cc3c[nH]nn3)NC(=O)c3ccc(NC(=O)/C(C)=C/c4ccc(O)cc4)cc3)cc2)cc1O,Salmonella Typhimurium,broth microdilution,TA100,,,MIC,0.125 µg/mL
Cc1cc(=O)oc2c(F)c(OC3C=CC(=O)O3)c(F)cc12 (racemic),Phelipanche ramosa,"seed germination, stimulant",seeds,,,EC50,57 nM

# Excerpt of the above:
SMILES,organism,test,system,conditions,scale,measurement,value
CN(Cc1ccc(C2(C(F)(F)F)CCC2)cc1)Cc1cccc2ccccc12,Trichophyton rubrum,"microbial killing, broth dilution",ATCC28188,6 days,,MFC,8000 µg/mL
CC1=CC(Oc2c(F)cc3c(C)cc(=O)oc3c2F)OC1=O (racemic),Phelipanche ramosa,stimulant,,1 µM,reference: (±)-GR24,maximum germination stimulation,85%
C=C(NC(=O)c1csc(-c2nc3c(cc2O)-c2nc(cs2)C(=O)NC(C(C)O)C(=O)NC(=C(C)OC)c2nc(cs2)C(=O)NC2c4nc(cs4)C(=O)NC(COC(=O)c4c5c6c(cccc6n4O)COC(=O)C(OC4CC(C)(O)C(N(C)C)C(C)O4)C2OC5)c2nc-3cs2)n1)C(N)=O (stereo not drawn),Streptococcus pyogenes,,10 isolates,pH 8.5,,MIC50,0.0078 µg/mL
O=c1[nH]cc(C(c2ccc(Cl)cc2)c2c[nH]c(=O)[nH]c2=O)c(=O)[nH]1,HIV-1 subtype C,"p24 antigen production, p24 ELISA",,1000 µg/mL,,inhibition,97%
Nc1nc(-c2ccccc2)nc2[nH]nc(Nc3c(F)cc(F)cc3F)c12,rhinovirus B5,viral cytopathic effect,HeLa,,,IC50,1470 nM
